Published values collected from several papers.
Compare with care: the assays were run in different laboratories. ± gives the spread as reported.
DRD4: D(4) dopamine receptor (DRD4, Homo sapiens, UniProt P21917)
Sequence of UniProt P21917 (whole entry, looked up): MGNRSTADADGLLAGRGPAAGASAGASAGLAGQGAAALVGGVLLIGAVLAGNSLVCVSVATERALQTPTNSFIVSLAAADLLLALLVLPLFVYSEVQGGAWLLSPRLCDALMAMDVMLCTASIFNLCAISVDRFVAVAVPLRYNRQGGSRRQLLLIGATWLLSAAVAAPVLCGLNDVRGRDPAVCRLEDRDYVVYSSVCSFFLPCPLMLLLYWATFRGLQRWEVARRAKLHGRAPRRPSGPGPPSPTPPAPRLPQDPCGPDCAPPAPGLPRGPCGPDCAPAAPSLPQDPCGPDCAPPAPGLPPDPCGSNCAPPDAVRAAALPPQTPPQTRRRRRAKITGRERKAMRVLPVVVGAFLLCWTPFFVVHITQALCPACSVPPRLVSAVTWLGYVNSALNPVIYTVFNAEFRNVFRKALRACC
HTR1D: 5-hydroxytryptamine receptor 1D (HTR1D, Homo sapiens, UniProt P28221)
Sequence of UniProt P28221 (whole entry, looked up): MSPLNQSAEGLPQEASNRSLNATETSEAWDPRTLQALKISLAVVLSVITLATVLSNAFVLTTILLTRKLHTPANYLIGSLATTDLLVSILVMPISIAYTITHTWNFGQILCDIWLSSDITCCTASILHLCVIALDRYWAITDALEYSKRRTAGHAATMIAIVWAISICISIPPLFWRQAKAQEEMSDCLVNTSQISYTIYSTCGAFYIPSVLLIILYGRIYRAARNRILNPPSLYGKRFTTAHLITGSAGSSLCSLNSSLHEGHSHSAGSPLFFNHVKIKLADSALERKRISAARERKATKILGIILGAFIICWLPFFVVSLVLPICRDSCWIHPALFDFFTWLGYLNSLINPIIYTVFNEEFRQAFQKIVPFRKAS
Sequence of UniProt P04756 (whole entry, looked up): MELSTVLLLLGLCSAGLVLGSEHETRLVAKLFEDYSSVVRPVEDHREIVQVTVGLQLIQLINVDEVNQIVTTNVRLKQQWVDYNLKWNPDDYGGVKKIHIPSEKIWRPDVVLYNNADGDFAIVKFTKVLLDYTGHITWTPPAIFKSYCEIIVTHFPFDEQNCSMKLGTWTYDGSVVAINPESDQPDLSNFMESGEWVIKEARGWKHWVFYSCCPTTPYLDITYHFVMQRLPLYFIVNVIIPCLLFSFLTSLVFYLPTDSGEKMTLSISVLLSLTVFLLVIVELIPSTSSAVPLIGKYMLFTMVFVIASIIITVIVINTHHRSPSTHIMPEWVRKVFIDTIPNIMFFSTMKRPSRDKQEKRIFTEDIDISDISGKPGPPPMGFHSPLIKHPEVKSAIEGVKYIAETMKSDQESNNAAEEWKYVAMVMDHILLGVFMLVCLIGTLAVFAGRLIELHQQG
Sequence of UniProt Q969R2 (whole entry, looked up): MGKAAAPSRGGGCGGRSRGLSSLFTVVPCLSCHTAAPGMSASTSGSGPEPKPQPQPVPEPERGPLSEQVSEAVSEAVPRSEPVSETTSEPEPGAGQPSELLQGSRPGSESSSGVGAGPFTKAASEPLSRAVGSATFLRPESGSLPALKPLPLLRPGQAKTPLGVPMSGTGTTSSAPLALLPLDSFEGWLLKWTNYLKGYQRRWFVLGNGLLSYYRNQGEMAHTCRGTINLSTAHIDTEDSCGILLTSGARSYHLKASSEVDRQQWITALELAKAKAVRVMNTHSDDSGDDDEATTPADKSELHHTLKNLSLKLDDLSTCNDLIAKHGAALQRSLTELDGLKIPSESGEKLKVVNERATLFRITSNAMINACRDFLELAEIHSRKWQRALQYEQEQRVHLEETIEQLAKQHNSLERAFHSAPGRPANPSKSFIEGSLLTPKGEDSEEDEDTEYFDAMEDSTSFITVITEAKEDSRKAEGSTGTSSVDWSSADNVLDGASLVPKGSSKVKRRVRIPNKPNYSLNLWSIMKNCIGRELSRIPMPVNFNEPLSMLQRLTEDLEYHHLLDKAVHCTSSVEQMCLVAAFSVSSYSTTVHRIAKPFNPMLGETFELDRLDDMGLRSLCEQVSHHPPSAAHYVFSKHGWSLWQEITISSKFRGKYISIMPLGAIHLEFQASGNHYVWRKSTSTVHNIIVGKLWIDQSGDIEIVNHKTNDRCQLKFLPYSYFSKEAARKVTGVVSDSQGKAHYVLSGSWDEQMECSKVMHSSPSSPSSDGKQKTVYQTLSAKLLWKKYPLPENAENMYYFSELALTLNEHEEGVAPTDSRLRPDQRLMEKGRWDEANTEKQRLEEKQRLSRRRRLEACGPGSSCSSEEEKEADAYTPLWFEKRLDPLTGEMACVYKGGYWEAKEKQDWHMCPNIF
Sequence of UniProt P02716 (whole entry, looked up): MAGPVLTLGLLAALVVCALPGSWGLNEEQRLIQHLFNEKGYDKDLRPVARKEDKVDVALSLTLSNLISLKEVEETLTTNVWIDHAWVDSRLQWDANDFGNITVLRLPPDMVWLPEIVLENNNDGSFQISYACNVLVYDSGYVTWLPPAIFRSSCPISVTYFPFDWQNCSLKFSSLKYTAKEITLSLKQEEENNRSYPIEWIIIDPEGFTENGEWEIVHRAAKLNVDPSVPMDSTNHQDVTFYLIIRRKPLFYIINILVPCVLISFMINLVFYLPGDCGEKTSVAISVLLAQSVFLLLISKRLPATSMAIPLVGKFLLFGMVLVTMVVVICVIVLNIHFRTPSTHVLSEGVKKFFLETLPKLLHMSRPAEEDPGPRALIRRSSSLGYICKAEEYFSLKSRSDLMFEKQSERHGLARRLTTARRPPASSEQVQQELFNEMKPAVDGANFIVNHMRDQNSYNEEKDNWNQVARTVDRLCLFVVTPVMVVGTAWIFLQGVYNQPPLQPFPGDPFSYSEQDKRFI
Sequence of UniProt P20782 (whole entry, looked up): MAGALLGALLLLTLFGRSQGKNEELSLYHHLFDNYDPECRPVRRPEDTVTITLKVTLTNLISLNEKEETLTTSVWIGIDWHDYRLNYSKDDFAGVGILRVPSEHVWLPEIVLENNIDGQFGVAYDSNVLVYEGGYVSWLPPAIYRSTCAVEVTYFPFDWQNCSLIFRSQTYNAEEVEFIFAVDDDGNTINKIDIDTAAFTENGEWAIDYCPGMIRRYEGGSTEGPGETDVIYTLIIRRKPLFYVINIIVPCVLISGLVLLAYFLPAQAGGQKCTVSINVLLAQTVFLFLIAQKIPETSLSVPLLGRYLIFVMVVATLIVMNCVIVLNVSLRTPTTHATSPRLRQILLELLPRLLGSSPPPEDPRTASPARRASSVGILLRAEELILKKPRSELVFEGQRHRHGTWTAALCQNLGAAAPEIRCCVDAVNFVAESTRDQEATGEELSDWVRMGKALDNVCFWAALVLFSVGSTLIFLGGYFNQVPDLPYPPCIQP
Sequence of UniProt Q9JYL2 (whole entry, looked up): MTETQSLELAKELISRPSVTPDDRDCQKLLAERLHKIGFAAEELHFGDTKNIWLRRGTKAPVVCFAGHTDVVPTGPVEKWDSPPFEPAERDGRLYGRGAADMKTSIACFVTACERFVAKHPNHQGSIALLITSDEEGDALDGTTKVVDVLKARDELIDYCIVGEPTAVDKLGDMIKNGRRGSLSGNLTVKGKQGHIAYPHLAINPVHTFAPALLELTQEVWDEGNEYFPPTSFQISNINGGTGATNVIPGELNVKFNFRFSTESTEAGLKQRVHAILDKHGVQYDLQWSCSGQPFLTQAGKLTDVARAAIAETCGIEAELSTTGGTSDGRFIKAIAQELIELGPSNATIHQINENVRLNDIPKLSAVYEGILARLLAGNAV
Sequence of UniProt P39656 (whole entry, looked up): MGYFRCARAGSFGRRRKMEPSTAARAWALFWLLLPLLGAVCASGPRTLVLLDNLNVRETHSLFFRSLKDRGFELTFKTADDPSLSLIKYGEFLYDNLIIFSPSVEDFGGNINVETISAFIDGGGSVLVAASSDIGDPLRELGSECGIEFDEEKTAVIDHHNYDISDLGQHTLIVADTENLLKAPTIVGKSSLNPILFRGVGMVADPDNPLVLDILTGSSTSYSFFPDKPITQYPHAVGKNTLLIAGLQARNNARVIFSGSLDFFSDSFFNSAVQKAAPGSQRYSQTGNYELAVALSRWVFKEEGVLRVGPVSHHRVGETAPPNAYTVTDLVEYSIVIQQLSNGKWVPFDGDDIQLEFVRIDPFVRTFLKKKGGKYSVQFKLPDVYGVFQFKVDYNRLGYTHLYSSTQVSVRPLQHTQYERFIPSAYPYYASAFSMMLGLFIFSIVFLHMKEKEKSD
Sequence of UniProt P35813 (whole entry, looked up): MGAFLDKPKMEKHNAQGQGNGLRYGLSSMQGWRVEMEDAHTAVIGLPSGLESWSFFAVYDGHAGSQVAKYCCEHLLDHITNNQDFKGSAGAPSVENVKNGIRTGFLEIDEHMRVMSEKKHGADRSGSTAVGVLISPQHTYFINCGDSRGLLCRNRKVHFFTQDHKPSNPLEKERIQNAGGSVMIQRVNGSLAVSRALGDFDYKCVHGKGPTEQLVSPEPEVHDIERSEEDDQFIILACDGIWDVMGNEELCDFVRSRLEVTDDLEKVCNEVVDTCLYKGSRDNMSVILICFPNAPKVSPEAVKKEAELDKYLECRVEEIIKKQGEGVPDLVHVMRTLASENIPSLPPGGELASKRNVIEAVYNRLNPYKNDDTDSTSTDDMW
Sequence of UniProt P28335 (whole entry, looked up): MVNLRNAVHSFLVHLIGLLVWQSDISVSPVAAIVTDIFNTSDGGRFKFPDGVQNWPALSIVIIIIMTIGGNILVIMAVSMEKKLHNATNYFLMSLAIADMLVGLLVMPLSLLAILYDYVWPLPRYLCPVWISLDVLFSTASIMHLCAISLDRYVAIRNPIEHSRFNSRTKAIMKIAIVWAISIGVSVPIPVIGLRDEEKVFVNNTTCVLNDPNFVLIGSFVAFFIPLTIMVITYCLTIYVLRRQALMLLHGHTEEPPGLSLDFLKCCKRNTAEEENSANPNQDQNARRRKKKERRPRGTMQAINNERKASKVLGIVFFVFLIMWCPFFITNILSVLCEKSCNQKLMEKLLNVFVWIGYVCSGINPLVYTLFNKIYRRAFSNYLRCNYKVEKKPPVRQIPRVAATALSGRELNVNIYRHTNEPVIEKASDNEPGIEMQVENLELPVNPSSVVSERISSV

SMILES = C[S+]([O-])C[C@H]1[C@H]2CC[C@@]3(CC[C@H]4[C@@](C)(CCC[C@@]4(C)C(=O)O)[C@@H]3C2)[C@@H]1O (stereo partly shown); tested on = OSBP2 (Homo sapiens, UniProt Q969R2); test = [3H]-25-hydroxycholesterol binding, competitive inhibitor; measurement = Ki; value = > 100000 nM
SMILES = Cc1cccc(C)c1N1C(=O)CNC2(CCN(C)CC2)C1=O; tested on = DRD4; test = binding; measurement = Ki; value = > 10000 nM
SMILES = COc1cc2c(Oc3ccc4[nH]c(C)cc4c3F)ccnc2cc1OCC1(N)CC1; system = paediatric recurrent refractory sarcoma; conditions = 8 mg; measurement = grade 3 Hematochezia; value = 0%
SMILES = O[C@H](CCCN1CCC(O)(c2ccc(Cl)cc2)CC1)c1ccc(F)cc1; tested on = DRD4; measurement = Ki; value = 263 ± 48.6 nM
SMILES = COc1ccc(N=Nc2ccc3[nH]cc(CCN(C)C)c3c2)cc1; tested on = HTR1D; test = radioligand binding; measurement = Ki; value = 3.47 nM
SMILES = CC[C@H](C)[C@@H]1NC(=O)[C@@H]2CCCN2C(=O)[C@H](CC(C)C)NC(=O)[C@H](CC(C)C)NC(=O)CNC(=O)[C@@H](NC(=O)[C@@H](NC(=O)[C@H](CC(=O)O)NC(=O)CNC(=O)[C@@H](NC(=O)[C@H](C)NC(=O)CNC(=O)[C@H](CCCCN)NC(=O)[C@H](CC(C)C)NC(=O)[C@H](CC(C)C)NC(=O)[C@H](CCCCN)NC(=O)CNC(=O)[C@@H](NC(=O)[C@@H](N)CC(C)C)C(C)C)C(C)C)C(C)C)CSSC[C@@H](C(=O)O)NC1=O; test = RNA-seq, measured: Cybb mRNA; system = mouse traumatic brain injury, frontal cortex and hippocampus; conditions = dose not given; how to read = reference: TBI plus compound vs TBI; measurement = log2 fold change; value = -1.91
SMILES = COc1cc2c(cc1OC)-c1c(OC)c(OC)cc3c1[C@H](C2)N(C)CC3; tested on = HTR2C (Homo sapiens, UniProt P28335); test = radioligand binding; measurement = Ki; value = 939 nM
SMILES = COc1cc2c(cc1OC)CN(CCc1ccc(NC(=O)c3cccc4c(=O)c5cccc(OC)c5[nH]c34)cc1)CC2; tested on = HTR1D; test = binding; measurement = Ki; value = 225 nM
SMILES = C[C@H]1CN(c2n[nH]c3nc(N[C@H]4CC[C@H](NS(=O)(=O)CCC(F)(F)F)CC4)ncc23)CCO1; tested on = Dolichyl-diphosphooligosaccharide--protein glycosyltransferase 48 kDa subunit (Homo sapiens, UniProt P39656); test = Kinobeads competition, measured: DDOST; conditions = 0.8 µM, unit not given; how to read = reference: vehicle; measurement = remaining binding; value = 1.31
SMILES = CC[C@H](C)[C@H](NC(=O)[C@H](Cc1ccccc1)NC(=O)[C@H](CCC(=O)O)NC(=O)[C@H](CCCNC(=N)N)NC(=O)[C@H](C)NC(=O)[C@H](C)NC(=O)[C@H](CCC(N)=O)NC(=O)[C@H](CCC(=O)O)NC(=O)[C@H](CCC(=O)O)NC(=O)[C@H](CC(C)C)NC(=O)[C@H](Cc1ccc(O)cc1)NC(=O)[C@H](CO)NC(=O)[C@H](CO)NC(=O)[C@@H](NC(=O)[C@H](CC(=O)O)NC(=O)[C@H](CO)NC(=O)[C@@H](NC(=O)[C@H](Cc1ccccc1)NC(=O)[C@@H](NC(=O)CNC(=O)[C@H](CCC(=O)O)NC(=O)[C@H](C)NC(=O)CCc1c[nH]cn1)[C@@H](C)O)[C@@H](C)O)C(C)C)C(=O)N[C@@H](C)C(=O)N[C@@H](Cc1c[nH]c2ccccc12)C(=O)N[C@@H](CC(C)C)C(=O)N[C@H](C(=O)N[C@@H](CCCNC(=N)N)C(=O)NCC(=O)N[C@@H](CCCNC(=N)N)C(=O)N[C@@H](CCCCNC(=O)COCCOCCNC(=O)COCCOCCNC(=O)CC[C@H](NC(=O)CCCCCCCCCCCCCCCCC(=O)O)C(=O)O)C(=O)NCC(=O)NCC(=O)N[C@@H](CO)C(=O)N[C@@H](CCCCNc1c(NCCCCCN(O)C(=O)CCC(=O)NCCCCCN(O)C(=O)CCC(=O)NCCCCCN(O)C(C)=O)c(=O)c1=O)C(=O)O)C(C)C [zirconium-89 labelled]; system = rat, muscle; conditions = iv, 3 nmol/kg, 72 h, ex vivo; measurement = tissue uptake; value = 0.04 %ID/g
SMILES = COc1cc([C@@H]2c3cc4c(cc3[C@@H](O[C@@H]3O[C@@H]5CO[C@@H](C)O[C@H]5[C@H](O)[C@H]3O)[C@H]3COC(=O)[C@H]23)OCO4)cc(OC)c1O; tested on = ABCC2 (Homo sapiens, UniProt Q92887); test = inhibitor; conditions = pH 7.5; measurement = Ki; value = 17900 ± 9200 nM
SMILES = COc1cc2c3cc1Oc1cc(ccc1O)C[C@@H]1c4c(cc(OC)c(O)c4Oc4ccc(cc4)C[C@@H]3N(C)CC2)CC[N+]1(C)C; tested on = Chrnd/Chrna1/Chrne (Mus musculus, UniProt P02716+P04756+P20782); test = inhibitor; system = mouse hemidiaphragm; conditions = two equal exclusive sites model; measurement = Ki; value = ~80 nM
SMILES = COc1cc(Nc2ncc(F)c(Nc3ccc4c(n3)NC(=O)C(C)(C)O4)n2)cc(OC)c1OC; tested on = PPM1A (Homo sapiens, UniProt P35813); test = phosphatase activity, inhibitor; measurement = IC50; value = > 10000 nM
SMILES = C[C@H](CS)C(=O)N1CCC[C@H]1C(=O)O; tested on = Succinyl-diaminopimelate desuccinylase (dapE, Neisseria meningitidis serogroup B, UniProt Q9JYL2); test = enzyme activity, competitive inhibitor; measurement = Ki; value = 2800 nM
SMILES = Cc1cccc(C)c1N1C(=O)[C@H](CO)NC2(CCN(C)CC2)C1=O; tested on = DRD4; test = binding; measurement = Ki; value = > 10000 nM
SMILES = N[C@@H](CS)C(=O)O; tested on = SclA protein (Enterococcus faecalis, UniProt Q831E3, H100D); measurement = Ki; value = 620000 ± 70000 nM

For quick reference, copied from above:
SMILES = C[C@H](CS)C(=O)N1CCC[C@H]1C(=O)O; tested on = Succinyl-diaminopimelate desuccinylase (dapE, Neisseria meningitidis serogroup B, UniProt Q9JYL2); test = enzyme activity, competitive inhibitor; measurement = Ki; value = 2800 nM
SMILES = Cc1cccc(C)c1N1C(=O)[C@H](CO)NC2(CCN(C)CC2)C1=O; tested on = DRD4; test = binding; measurement = Ki; value = > 10000 nM
